Measurements of several laboratories.
A part holds a random share of what one study measured. “And” joins repeats or separate records; there may be more than shown. ± marks the error that the study gave.
UniProt Q6Q1S2, sequence (whole entry, looked up): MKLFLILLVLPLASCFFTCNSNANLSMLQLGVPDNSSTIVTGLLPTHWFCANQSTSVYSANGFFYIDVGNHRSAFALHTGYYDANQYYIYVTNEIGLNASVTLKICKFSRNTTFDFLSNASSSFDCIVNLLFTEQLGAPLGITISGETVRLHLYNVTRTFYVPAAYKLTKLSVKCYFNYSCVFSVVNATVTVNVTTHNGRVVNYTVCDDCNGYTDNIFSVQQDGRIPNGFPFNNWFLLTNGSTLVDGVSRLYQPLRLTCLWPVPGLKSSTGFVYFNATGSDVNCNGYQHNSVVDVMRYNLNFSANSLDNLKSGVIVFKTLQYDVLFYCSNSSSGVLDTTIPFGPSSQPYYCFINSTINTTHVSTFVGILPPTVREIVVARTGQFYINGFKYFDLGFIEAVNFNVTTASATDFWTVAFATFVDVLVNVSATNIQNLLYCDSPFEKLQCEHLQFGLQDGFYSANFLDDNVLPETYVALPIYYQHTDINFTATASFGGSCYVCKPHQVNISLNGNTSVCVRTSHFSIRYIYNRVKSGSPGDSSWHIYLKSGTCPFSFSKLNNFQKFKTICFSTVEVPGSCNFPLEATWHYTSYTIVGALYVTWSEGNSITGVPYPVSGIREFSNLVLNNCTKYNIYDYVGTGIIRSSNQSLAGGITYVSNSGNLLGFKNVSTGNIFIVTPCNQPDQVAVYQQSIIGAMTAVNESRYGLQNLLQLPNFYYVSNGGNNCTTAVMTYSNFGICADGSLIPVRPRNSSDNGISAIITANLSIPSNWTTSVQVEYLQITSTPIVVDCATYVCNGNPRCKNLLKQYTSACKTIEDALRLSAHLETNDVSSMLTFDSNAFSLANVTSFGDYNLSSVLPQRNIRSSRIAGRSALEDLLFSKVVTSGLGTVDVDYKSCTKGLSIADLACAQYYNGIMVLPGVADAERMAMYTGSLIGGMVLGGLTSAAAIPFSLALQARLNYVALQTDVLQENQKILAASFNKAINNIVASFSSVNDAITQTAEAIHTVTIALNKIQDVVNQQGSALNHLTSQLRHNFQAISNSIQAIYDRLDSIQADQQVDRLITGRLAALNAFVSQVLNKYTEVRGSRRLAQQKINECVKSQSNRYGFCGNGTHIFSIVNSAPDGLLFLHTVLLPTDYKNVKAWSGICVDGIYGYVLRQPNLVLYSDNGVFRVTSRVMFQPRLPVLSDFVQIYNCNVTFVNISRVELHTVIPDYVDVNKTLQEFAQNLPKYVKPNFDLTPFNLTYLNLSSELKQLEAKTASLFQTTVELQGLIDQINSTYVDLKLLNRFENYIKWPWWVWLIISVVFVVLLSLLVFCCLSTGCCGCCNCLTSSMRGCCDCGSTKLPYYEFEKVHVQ

Series 1
Target: Replicase polyprotein 1ab, nsp12 with nsp7/nsp8 (rep, Severe acute respiratory syndrome coronavirus 2, UniProt P0DTD1)
Effect on: polymerase activity
Organism: SARS-CoV-2
Tested at: 20 µM
Measurement: inhibition
Oc1c(I)cc(I)c(O)c1I: 3.65%
O=Nc1ccc(O)c2ncccc12: 1.18%
CCC(=O)OCN1C(=O)C=CC1=O: -2.04%
Nc1nnc(Sc2ncc([N+](=O)[O-])s2)s1: -12.2%
O=C(O)[C@@H](S)[C@@H](S)C(=O)O: 27.7%
O=C(O)c1ccc(SSc2ccc(C(=O)O)cn2)nc1: -0.12%
C[CH2][Hg][S]c1ccccc1C(=O)[O-].[Na+]: 20.1%
CCC(C)SSc1ncc[nH]1 (centres unmarked): -1.01%
O=C(O)c1ccc(N2C(=O)/C(=C\c3ccc(-c4ccc([N+](=O)[O-])cc4)o3)C=C2c2ccccc2)cc1: 14%
CC(=O)[O][Pt]([NH2])([Cl])([Cl])([NH]C1CCCCC1)[O]C(C)=O: -0.69%
CN=c1nc(-c2ccccc2)n(-c2ccccc2)s1: 0.48%
C=CC(=O)c1ccc2ccccc2c1: -2.29%
CC(C)(C)c1ccc(S(=O)(=O)/C=C/C#N)cc1: 0.69%
CCOC(=O)C1=C(N)Oc2ccc(Br)cc2[C@H]1[C@H](C#N)C(=O)OCC: -4.93% and 1.2%
O=c1[nH]nc(Sc2ncc([N+](=O)[O-])s2)n1-c1ccc2c(c1)OCCO2: -14.3%
O=S(=O)(O)c1ccc(-c2c3nc(c(-c4ccc(S(=O)(=O)O)cc4)c4ccc([nH]4)c(-c4ccc(S(=O)(=O)O)cc4)c4nc(c(-c5ccc(S(=O)(=O)O)cc5)c5ccc2[nH]5)C=C4)C=C3)cc1: 31.3%

Series 2
Target: Replicase polyprotein 1ab, main protease (rep, Severe acute respiratory syndrome coronavirus 2, UniProt P0DTD1)
Effect on: enzyme activity
Action: inhibitor
Tested at: 20 µM
Measurement: inhibition
O=C(O)c1ccc(N2C(=O)/C(=C/c3ccc(-c4ccc([N+](=O)[O-])cc4)o3)C=C2c2ccccc2)cc1: 21.6%
Cc1ccc(C(=O)n2nc(-c3cccnc3)nc2N)cc1: 49.7%
O=C1NC(=O)C(c2ccccc2)N1 (centres unmarked): 92%
Nc1nnc(Sc2ncc([N+](=O)[O-])s2)s1: 25.9%

Series 3
Cell line: HEK-293T
Organism: VSV pseudotyped with SARS-CoV-2 spike
Tested at: 10 µM
Time: 16 h
Measurement: pseudovirus infection
Clc1ccccc1C(c1ccccc1)(c1ccccc1)n1ccnc1: 80.5%
O=C1OCCN1/N=C/c1ccc([N+](=O)[O-])o1: 100%
Clc1cccc(Cl)c1N=C1NCCN1: 71.6%

Single results of other studies
gag capsid C-terminal domain: Gag polyprotein, capsid C-terminal domain (gag, UniProt P12493)
rep main protease: Replicase polyprotein 1ab, main protease (rep, Severe acute respiratory syndrome coronavirus 2, UniProt P0DTD1)
CC[C@H](C)[C@H](N)C(=O)N[C@H](C(=O)N[C@@H](Cc1ccccc1)C(=O)N[C@H]1CSc2c(F)c(F)c(c(F)c2F)SC[C@@H](C(=O)N[C@@H](Cc2ccc(O)cc2)C(=O)N[C@@H](Cc2ccc(O)cc2)C(=O)NCC(=O)N[C@@H](CCCCN)C(=O)N[C@@H](CCCCN)C(=O)N[C@@H](CCCCN)C(N)=O)NC(=O)[C@H](CC(C)C)NC(=O)[C@H](CC(C)C)NC(=O)[C@H](CC(=O)O)NC1=O)[C@@H](C)O
Kd (gag capsid C-terminal domain; binding, biolayer interferometry; PBS; pH 7.4, 30 °C, biotinylated peptide immobilised, added: C-CA 5 to 100 µM): 12 ± 0.6 µM

Cc1ccc(OCCn2c(C)c(C=C3C(=O)NC(=S)NC3=O)c3ccccc32)c(C)c1
inhibition (rep main protease; viral replication, Gluc reporter; SARS-CoV-2; 20 µM): -5.98%

CC[C@H](C)[C@H](N)C(=O)N[C@H](C(=O)N[C@@H](Cc1ccccc1)C(=O)N[C@H]1CSc2ccc(cc2)-c2ccc(cc2)SC[C@@H](C(=O)N[C@@H](Cc2ccc(O)cc2)C(=O)N[C@@H](Cc2ccc(O)cc2)C(=O)NCC(=O)N[C@@H](CCCCN)C(=O)N[C@@H](CCCCN)C(=O)N[C@@H](CCCCN)C(N)=O)NC(=O)[C@H](CC(C)C)NC(=O)[C@H](CC(C)C)NC(=O)[C@H](CC(=O)O)NC1=O)[C@@H](C)O
Kd (gag capsid C-terminal domain; binding, biolayer interferometry; PBS; pH 7.4, 30 °C, biotinylated peptide immobilised, added: C-CA 5 to 100 µM): 61 ± 35 µM

COc1ccccc1/C=C1\C(=O)Nc2ccccc21
inhibition (rep main protease; viral replication, Gluc reporter; SARS-CoV-2; 20 µM): -0.926%

CNC(=O)[C@@H](NC(=O)[C@H](CC(C)C)[C@H](O)C(=O)NO)C(C)(C)C
remaining activity (Daboia russelii venom proteases (SVMP); protease activity, inhibitor; MP population; 10 µM, added: azocasein substrate; baseline: venom alone): 0%

CN[C@@H]1[C@H](O[C@@H]2OC[C@@H](O)[C@H](O)[C@H]2O)[C@@H](O)[C@H](O[C@H]2c3cc(C)c(C(=O)N[C@H](C)C(=O)O)c(O)c3-c3c(cc4c(c3O)C(=O)c3cc(OC)cc(O)c3C4=O)[C@@H]2O)O[C@@H]1C
EC50 (transmissible gastroenteritis virus; viral cytopathicity, MTT; ST, Purdue; 72 h): 4.7 ± 0.8 µM

CC[C@H](C)[C@H](NC(=O)[C@H](CC(C)C)NC(=O)[C@H](Cc1c[nH]c2ccccc12)NC(=O)[C@H](CCC(N)=O)NC(=O)[C@@H](NC(=O)[C@H](Cc1ccccc1)NC(=O)[C@H](C)NC(=O)[C@H](CCCCNC(=O)COCCOCCNC(=O)COCCOCCNC(=O)CC[C@H](NC(=O)CCCCCCCCCCCCCCCCCCC(=O)O)C(=O)O)NC(=O)[C@H](CCC(N)=O)NC(=O)[C@H](C)NC(=O)[C@@H](NC(=O)[C@H](CCCCN)NC(=O)[C@H](CC(=O)O)NC(=O)[C@H](CC(C)C)NC(=O)C(C)(C)NC(=O)[C@@H](NC(=O)[C@H](CO)NC(=O)[C@H](Cc1ccc(O)cc1)NC(=O)[C@H](CC(=O)O)NC(=O)[C@H](CO)NC(=O)[C@@H](NC(=O)[C@H](Cc1ccccc1)NC(=O)[C@@H](NC(=O)CNC(=O)[C@H](CCC(=O)O)NC(=O)C(C)(C)NC(=O)[C@@H](N)Cc1ccc(O)cc1)[C@@H](C)O)[C@@H](C)O)[C@@H](C)CC)[C@@H](C)CC)C(C)C)C(=O)N[C@@H](C)C(=O)NCC(=O)NCC(=O)N1CCC[C@H]1C(=O)N[C@@H](CO)C(=O)N[C@@H](CO)C(=O)NCC(=O)N[C@@H](C)C(=O)N1CCC[C@H]1C(=O)N1CCC[C@H]1C(=O)N1CCC[C@H]1C(=O)N[C@@H](CO)C(N)=O
cough (healthy human; 0.5 mg, single ascending dose): 16.7%

CCC(CC)O[C@@H]1C=C(C(=O)O)C[C@H](N)[C@H]1NC(C)=O
IC50 (neuraminidase (Influenza A virus, UniProt A0A088CBR8)): 0.00201 µM

CC[C@H](C)[C@H](NC(=O)[C@H](CCC(=O)O)NC(=O)[C@H](CCCCN)NC(=O)[C@H](CC(C)C)NC(=O)[C@H](CC(=O)O)NC(=O)[C@@H](NC(=O)[C@H](Cc1ccc(O)cc1)NC(=O)[C@H](CO)NC(=O)[C@H](CCC(=O)O)NC(=O)[C@H](CCC(=O)O)NC(=O)[C@H](CC(C)C)NC(=O)[C@H](CCCCN)NC(=O)[C@H](CCCCN)NC(=O)[C@@H](NC(=O)[C@H](C)NC(=O)[C@H](CCC(=O)O)NC(=O)[C@H](CCC(=O)O)NC(=O)[C@H](CC(C)C)NC(=O)[C@H](CCCCN)NC(=O)[C@H](CCCCN)NC(=O)[C@H](CCSC)NC(=O)[C@H](CCC(=O)O)NC(=O)[C@H](Cc1ccc(O)cc1)NC(=O)[C@H](CCC(=O)O)NC(=O)[C@H](CC(C)C)NC(=O)[C@H](CC(=O)O)NC(=O)[C@H](CC(C)C)NC(=O)[C@H](Cc1ccccc1)NC(=O)[C@@H](NC(=O)[C@@H](NC(=O)[C@H](CC(N)=O)NC(=O)[C@@H](NC(=O)[C@H](CCC(N)=O)NC(=O)[C@H](CC(=O)O)NC(=O)[C@H](CC(C)C)NC(=O)[C@@H](N)CO)[C@@H](C)CC)C(C)C)[C@@H](C)O)[C@@H](C)CC)[C@@H](C)CC)C(=O)O
IC50 (Spike glycoprotein (S, Human coronavirus NL63, UniProt Q6Q1S2)): 0.78 ± 0.18 µM
